Assay results of several laboratories.
Each line is one published result; not all experiments were run side by side. ± marks the error that the study gave.
CALCR: Calcitonin receptor (CALCR, Homo sapiens, UniProt P30988)
VHL/BRD9 with Elongin B/C: VHL/BRD9, with Elongin B/C (Homo sapiens, UniProt P40337+Q9H8M2)

| SMILES | tested on | test | test system | conditions | EC50 |
| --- | --- | --- | --- | --- | --- |
| CS(=O)(=O)Oc1cc(C=O)ccc1[N+](=O)[O-] | YWHAG/RELA, phospho-Ser45 p65 peptide (Homo sapiens, UniProt P61981+Q04206) | ternary complex formation, stabilizer, fluorescence anisotropy |  |  | > 1000 µM |
| Nc1ncnc2c1ncn2[C@@H]1O[C@H](COP(=O)(O)OP(=O)(O)OC[C@H]2OC(O)[C@H](O)[C@@H]2O)[C@@H](O)[C@H]1OP(=O)(O)O (stereo partly drawn) | TRPM2 (Nematostella vectensis, UniProt A7T1N0, E741C) | agonist |  |  | 0.13 ± 0.005 µM |
| CCc1cc(O)cc2c(/C=N/NC(=N)NCCc3ccc(Cl)cc3)c[nH]c12 | Relaxin-3 receptor 2 (RXFP4, Homo sapiens, UniProt Q8TDU9, L118S) | agonist |  |  | 0.00309 µM |
| CC[C@H](C)[C@@H](C(=O)N[C@@H](CC(C)C)C(=O)N[C@@H](CO)C(=O)N[C@@H](CO)C(=O)N[C@H](C(=O)N[C@@H](CCC(=O)O)C(=O)N[C@H](C(=O)NCC(=O)N[C@@H](CO)C(=O)N[C@@H](CC(N)=O)C(=O)N[C@H](C(=O)N1C[C@H](O)C[C@H]1C(N)=O)[C@@H](C)O)C(C)C)[C@@H](C)O)N(C)C(=O)[C@H](C)NC(=O)CN(C)C(=O)[C@H](Cc1ccccc1)NC(=O)[C@H](CO)NC(=O)[C@H](CO)NC(=O)[C@H](CCCNC(=N)N)NC(=O)[C@H](CCC(N)=O)NC(=O)[C@H](CC(C)C)NC(=O)[C@H](Cc1ccccc1)NC(=O)[C@H](Cc1c[nH]cn1)NC(=O)[C@H](C)NC(=O)[C@H](CC(C)C)NC(=O)[C@H](CCCNC(=N)N)NC(=O)[C@H](CCC(=O)O)NC(=O)[C@@H](NC(=O)[C@H](C)NC(=O)[C@@H]1CCNC(=O)C[C@H](NC(=O)[C@H](CCCNC(=N)N)NC(=O)CC[C@H](NC(=O)CCCCCCCCCCCCCCCCCCC(=O)O)C(=O)O)C(=O)NCC(=O)N[C@@H]([C@@H](C)O)C(=O)N[C@@H](C)C(=O)N[C@@H]([C@@H](C)O)C(=O)N1)[C@@H](C)O | CALCR | cAMP, agonist |  |  | 0.0309 µM |
| CC(=O)NCCN(c1nc(N2CC(Oc3ccccc3)C2)nc(N2CC3C(CCOc4cc(-c5scnc5C)ccc4CNC(=O)[C@@H]4C[C@@H](O)CN4C(=O)[C@@H](NC(=O)C4(F)CC4)C(C)(C)C)C3C2)n1)C(C)C (stereo partly drawn) | VHL/BRD9 with Elongin B/C | ternary complex formation, AlphaScreen |  | added: 50 nM His-BRD9 and 20 nM biotin-VCB | 0.68 µM |
| O=S(=O)(c1ccc(-c2ccc3ncnc(Nc4ccccc4)c3c2)cc1)N1CCOCC1 | Leishmania major | intracellular amastigote growth, luciferase | RAW264.7 macrophages |  | > 4 µM |
| Oc1ccc(C2COc3cc(O)ccc3C2)cc1 (racemic) | Estrogen receptor beta (ESR2, Homo sapiens, UniProt Q92731) | array formation, agonist | GFP-ERβ PRL-HeLa | 1 h | 0.284 µM |
| O=C(Cc1ccc(OCc2ccccc2)cc1)NC1(C(=O)O)CCN(C(=O)c2ccc(-c3cccc(Cl)c3)cc2)CC1 | Putative P2Y purinoceptor 10 (Homo sapiens, UniProt O00398) | TGF-alpha shedding, agonist |  |  | > 10 µM |
| CC[C@H](C)[C@@H](C(=O)N[C@@H](CC(C)C)C(=O)N[C@@H](CO)C(=O)N[C@@H](CO)C(=O)N[C@H](C(=O)N[C@@H](CCC(=O)O)C(=O)N[C@H](C(=O)NCC(=O)N[C@@H](CO)C(=O)N[C@@H](CC(N)=O)C(=O)N[C@H](C(=O)N1C[C@H](O)C[C@H]1C(N)=O)[C@@H](C)O)C(C)C)[C@@H](C)O)N(C)C(=O)[C@H](C)NC(=O)CN(C)C(=O)[C@H](Cc1ccccc1)NC(=O)[C@H](CO)NC(=O)[C@H](CO)NC(=O)[C@H](CCCNC(=N)N)NC(=O)[C@H](CCC(N)=O)NC(=O)[C@H](CC(C)C)NC(=O)[C@H](Cc1ccccc1)NC(=O)[C@H](CC(=O)O)NC(=O)[C@H](C)NC(=O)[C@H](CC(C)C)NC(=O)[C@H](CCCNC(=N)N)NC(=O)[C@H](CCC(N)=O)NC(=O)[C@@H](NC(=O)[C@H](C)NC(=O)[C@@H]1CSSC[C@H](NC(=O)[C@H](CCCNC(=N)N)NC(=O)CC[C@H](NC(=O)CCCCCCCCCCCCCCCCCCC(=O)O)C(=O)O)C(=O)N[C@@H](CC(N)=O)C(=O)N[C@@H]([C@@H](C)O)C(=O)N[C@@H](C)C(=O)N[C@@H]([C@@H](C)O)C(=O)N1)[C@@H](C)O | CALCR | cAMP, agonist |  |  | 0.000126 µM |
| Cc1cc(-c2ccc3ncnc(Nc4ccc(OCc5cccc(F)c5)c(Cl)c4)c3c2)cnc1N1CCOCC1 | Leishmania major | intracellular amastigote growth, luciferase | RAW264.7 macrophages |  | 1.1 µM |
| CC[C@H](C)[C@@H](C(=O)N[C@@H](CC(C)C)C(=O)N[C@@H](CO)C(=O)N[C@@H](CO)C(=O)N[C@H](C(=O)N[C@@H](CCC(=O)O)C(=O)N[C@H](C(=O)NCC(=O)N[C@@H](CO)C(=O)N[C@@H](CC(N)=O)C(=O)N[C@H](C(=O)N1C[C@H](O)C[C@H]1C(N)=O)[C@@H](C)O)C(C)C)[C@@H](C)O)N(C)C(=O)[C@H](C)NC(=O)CN(C)C(=O)[C@H](Cc1ccccc1)NC(=O)[C@H](CO)NC(=O)[C@H](CO)NC(=O)[C@H](CCCNC(=N)N)NC(=O)[C@H](CCC(N)=O)NC(=O)[C@H](CC(C)C)NC(=O)[C@H](Cc1ccccc1)NC(=O)[C@H](Cc1c[nH]cn1)NC(=O)[C@H](C)NC(=O)[C@H](CC(C)C)NC(=O)[C@H](CCCNC(=N)N)NC(=O)[C@H](CCC(=O)O)NC(=O)[C@@H](NC(=O)[C@H](C)NC(=O)[C@@H]1CC(=O)NC[C@H](NC(=O)[C@H](CCCNC(=N)N)NC(=O)CC[C@H](NC(=O)CCCCCCCCCCCCCCCCCCC(=O)O)C(=O)O)C(=O)NCC(=O)N[C@@H]([C@@H](C)O)C(=O)N[C@@H](C)C(=O)N[C@@H]([C@@H](C)O)C(=O)N1)[C@@H](C)O | CALCR | cAMP, agonist |  |  | > 10 µM |
| C#CCN1CCN(c2nc(N3CCC(CCOc4cc(-c5scnc5C)ccc4CNC(=O)[C@@H]4C[C@@H](O)CN4C(=O)[C@@H](NC(=O)C4(F)CC4)C(C)(C)C)CC3)nc(N3CCN(C(=O)C4CC4)C3)n2)CC1=O | VHL/BRD9 with Elongin B/C | ternary complex formation, AlphaScreen |  | added: 50 nM His-BRD9 and 20 nM biotin-VCB | 0.172 µM |

A few entries again:
| SMILES | tested on | test | test system | conditions | EC50 |
| --- | --- | --- | --- | --- | --- |
| C#CCN1CCN(c2nc(N3CCC(CCOc4cc(-c5scnc5C)ccc4CNC(=O)[C@@H]4C[C@@H](O)CN4C(=O)[C@@H](NC(=O)C4(F)CC4)C(C)(C)C)CC3)nc(N3CCN(C(=O)C4CC4)C3)n2)CC1=O | VHL/BRD9 with Elongin B/C | ternary complex formation, AlphaScreen |  | added: 50 nM His-BRD9 and 20 nM biotin-VCB | 0.172 µM |
